Experimental data gathered from unrelated publications.
“And” joins repeats or separate records; there may be more than shown.
Cell line: SK-MEL-5

With CCCC(CCC)C(=O)OCc1cn(-c2c3ccccc3nc3ccccc23)nn1 the growth percentage was 95.8% (NCI60 single-dose screen; 10 µM).
CCOC(=O)CSc1nc(-c2ccc(Cl)cc2)c2c(NC(=O)c3ccccc3)nnc-2[nH]1 gave a cell growth of 97.1% (SRB; 10 µM, NCI60 single-dose screen; reference: untreated).
CC[C@H](C)[C@H](NC(=O)[C@H](CCCCN)NC(=O)[C@@H](NC(=O)[C@H](CCCNC(=N)N)NC(=O)[C@@H](NC(=O)[C@@H](CCCNC(=N)N)NC(=O)[C@@H](CCCNC(=N)N)NC(=O)[C@@H](CCCNC(=N)N)NC(=O)[C@@H](CCCNC(=N)N)NC(=O)[C@@H](CCCNC(=N)N)NC(=O)[C@H](N)CCCNC(=N)N)[C@@H](C)O)[C@@H](C)O)C(=O)N[C@@H](CC(=O)O)C(=O)N[C@@H](Cc1c[nH]c2ccccc12)C(=O)NC(C)(C)C(=O)N[C@@H](CCCCN)C(=O)N[C@H](C(=O)N[C@@H](CC(C)C)C(=O)NC(C)(C)C(=O)N[C@@H](CCCCN)C(=O)NCCCCCC(=O)NCCCC[C@H](NC(=O)CCCCCNC(=O)[C@H](CCCCN)NC(=O)C(C)(C)NC(=O)[C@H](CC(C)C)NC(=O)[C@@H](NC(=O)[C@H](CCCCN)NC(=O)C(C)(C)NC(=O)[C@H](Cc1c[nH]c2ccccc12)NC(=O)[C@H](CC(=O)O)NC(=O)[C@@H](NC(=O)[C@H](CCCCN)NC(=O)[C@@H](NC(=O)[C@H](CCCNC(=N)N)NC(=O)[C@@H](NC(=O)[C@@H](CCCNC(=N)N)NC(=O)[C@@H](CCCNC(=N)N)NC(=O)[C@@H](CCCNC(=N)N)NC(=O)[C@@H](CCCNC(=N)N)NC(=O)[C@@H](CCCNC(=N)N)NC(=O)[C@H](N)CCCNC(=N)N)[C@@H](C)O)[C@@H](C)O)[C@@H](C)CC)[C@@H](C)CC)C(N)=O)[C@@H](C)CC gave an apoptotic cells of 49% (annexin V flow cytometry; 10 µM, 2 h).
Cc1cc(=O)[nH]n1-c1nc(-c2ccc(Cl)cc2)c2c(NC(=O)c3ccccc3)nnc-2[nH]1 gave a cell growth of 97.4% (SRB; 10 µM, NCI60 single-dose screen; reference: untreated).
With CN1CCN(c2ccc3[nH]c(-c4ccc5[nH]c(-c6ccc(C(F)(F)F)cc6)nc5c4)nc3c2)CC1 the growth percent was 44.2% (SRB; 10 µM, 48 h).
The GI50 of Cn1cncc1C1=CN(c2ncnc3[nH]cnc23)CCS1 is reported as 22900 nM (melanoma cell line).
CCCCN1CCN(c2ccc3[nH]c(-c4ccc5[nH]c(-c6cc(OC)c(OC)c(OC)c6)nc5c4)nc3c2)CC1 has a growth percent of 44.8% (SRB; 10 µM, 48 h).
Cc1cc(=O)[nH]c(=O)n1Cc1cn(-c2c3ccccc3nc3ccccc23)nn1 has a growth percentage of 78.9% (NCI60 single-dose screen; 10 µM).
With Cc1n[nH]c2nc(-c3ccc(Cl)cc3)c3c(NC(=O)c4ccccc4)nnc-3n12 the cell growth was 100% (SRB; 10 µM, NCI60 single-dose screen; reference: untreated).
CCCCN1CCN(c2ccc3[nH]c(-c4ccc5[nH]c(-c6ccc(C(F)(F)F)cc6)nc5c4)nc3c2)CC1 gave a growth percent of 10.8% (SRB; 10 µM, 48 h).
With O=c1ccn(Cc2cn(-c3c4ccccc4nc4ccccc34)nn2)c(=O)[nH]1 the growth percentage was 91.3% (NCI60 single-dose screen; 10 µM).
With CCN(CC)c1ccc(C=NNC(=O)CSc2nc3ccccc3c(=O)n2Cc2ccc(S(N)(=O)=O)cc2)c(O)c1 the TGI was 4970 nM (NCI five-dose screen).
The TGI of C#C[C@@]1(O)[C@@H](CO)O[C@@H](n2cc(Cl)c3c(N)ncnc32)[C@@H]1O is reported as 343 nM and 268 nM (SRB; NCI-60 screen).
With O=C(Nc1nnc2n3c(=S)[nH][nH]c3nc(-c3ccc(Cl)cc3)c1-2)c1ccccc1 the cell growth was 97.3% (SRB; 10 µM, NCI60 single-dose screen; reference: untreated).
CCCN1CCN(c2ccc3[nH]c(-c4ccc5[nH]c(-c6ccc(OCC)c(OCC)c6)nc5c4)nc3c2)CC1 has a growth percent of -93.9% (SRB; 10 µM, 48 h).
With Cc1cc(-c2ccccc2)n(-c2nc(-c3ccc(Cl)cc3)c3c(NC(=O)c4ccccc4)nnc-3[nH]2)n1 the cell growth was 78.5% (SRB; 10 µM, NCI60 single-dose screen; reference: untreated).
For CCCCN1CCN(c2ccc3nc(-c4ccc5nc(-c6cc(OC)ccc6OC)[nH]c5c4)[nH]c3c2)CC1, the growth percent was 94.7% (SRB; 10 µM, 48 h).
For O=C(Nc1nnc2[nH]c(=S)[nH]c(-c3ccc(Cl)cc3)c1-2)c1ccccc1, the cell growth was 96.2% (SRB; 10 µM, NCI60 single-dose screen; reference: untreated).
CCCCN1CCN(c2ccc3[nH]c(-c4ccc5[nH]c(-c6ccc(OCC)c(OCC)c6)nc5c4)nc3c2)CC1 gave a growth percent of 8.19% (SRB; 10 µM, 48 h).

Repeated from above:
With CCN(CC)c1ccc(C=NNC(=O)CSc2nc3ccccc3c(=O)n2Cc2ccc(S(N)(=O)=O)cc2)c(O)c1 the TGI was 4970 nM (NCI five-dose screen).
CC[C@H](C)[C@H](NC(=O)[C@H](CCCCN)NC(=O)[C@@H](NC(=O)[C@H](CCCNC(=N)N)NC(=O)[C@@H](NC(=O)[C@@H](CCCNC(=N)N)NC(=O)[C@@H](CCCNC(=N)N)NC(=O)[C@@H](CCCNC(=N)N)NC(=O)[C@@H](CCCNC(=N)N)NC(=O)[C@@H](CCCNC(=N)N)NC(=O)[C@H](N)CCCNC(=N)N)[C@@H](C)O)[C@@H](C)O)C(=O)N[C@@H](CC(=O)O)C(=O)N[C@@H](Cc1c[nH]c2ccccc12)C(=O)NC(C)(C)C(=O)N[C@@H](CCCCN)C(=O)N[C@H](C(=O)N[C@@H](CC(C)C)C(=O)NC(C)(C)C(=O)N[C@@H](CCCCN)C(=O)NCCCCCC(=O)NCCCC[C@H](NC(=O)CCCCCNC(=O)[C@H](CCCCN)NC(=O)C(C)(C)NC(=O)[C@H](CC(C)C)NC(=O)[C@@H](NC(=O)[C@H](CCCCN)NC(=O)C(C)(C)NC(=O)[C@H](Cc1c[nH]c2ccccc12)NC(=O)[C@H](CC(=O)O)NC(=O)[C@@H](NC(=O)[C@H](CCCCN)NC(=O)[C@@H](NC(=O)[C@H](CCCNC(=N)N)NC(=O)[C@@H](NC(=O)[C@@H](CCCNC(=N)N)NC(=O)[C@@H](CCCNC(=N)N)NC(=O)[C@@H](CCCNC(=N)N)NC(=O)[C@@H](CCCNC(=N)N)NC(=O)[C@@H](CCCNC(=N)N)NC(=O)[C@H](N)CCCNC(=N)N)[C@@H](C)O)[C@@H](C)O)[C@@H](C)CC)[C@@H](C)CC)C(N)=O)[C@@H](C)CC gave an apoptotic cells of 49% (annexin V flow cytometry; 10 µM, 2 h).
